Published values gathered from unrelated publications.
Numbered parts are unrelated; each lists some results of a single study. Substitutions count along the parent as printed.

Study 1 — target: CCNE2, cyclin fold, Cln2 fusion (human); method: yeast growth competition, sequencing; sample: yeast; notes: strong parent motif; baseline: not given; reading: higher = stronger binding
Starting sequence: E2F3 docking peptide (human); PPAKRRLELGESG; partner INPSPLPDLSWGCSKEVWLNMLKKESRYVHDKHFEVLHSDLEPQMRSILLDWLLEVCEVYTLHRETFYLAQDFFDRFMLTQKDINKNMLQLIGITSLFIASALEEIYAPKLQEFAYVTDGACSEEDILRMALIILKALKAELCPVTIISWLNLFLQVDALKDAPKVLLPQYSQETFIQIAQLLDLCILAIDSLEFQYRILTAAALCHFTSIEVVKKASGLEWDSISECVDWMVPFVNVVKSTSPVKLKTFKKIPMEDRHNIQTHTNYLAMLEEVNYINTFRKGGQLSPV
For `PPAKRRAELGESG [L7A]`, “normalised enrichment score” read 0.399.
For `PPAKARAELGESG [R5A L7A]`, “normalised enrichment score” read 0.0337.
For `PPAKKRLELGESG [R5K]`, “normalised enrichment score” read -0.171.
`PPAKRRLELGASG [E11A]` — result for “normalised enrichment score”: 1.48.
Under “normalised enrichment score”, `PPAKRRLEFGESG [L9F]` is recorded as 4.81.
Under “normalised enrichment score”, `PPAKARLELGESG [R5A]` is recorded as -0.196.
`PPAKRRLEAGESG [L9A]` — result for “normalised enrichment score”: 0.26.
For `PPAKRRLELGEAG [S12A]`, “normalised enrichment score” read 1.01.
For `PAAKRRLELGESG [P2A]`, “normalised enrichment score” read 1.09.

Study 2 — method: protein-binding microarray; molecule type: double-stranded DNA, one strand shown; sample: in vitro; concentration: not given; reading: higher = stronger binding
Target: Max dimerization protein 1, bHLH-zipper, MAX partner unstated (MXD1, Homo sapiens, UniProt Q05195, residues 56-136)
Notes: k-mer, scored over probes, only values ≥0.25
Construct (chain): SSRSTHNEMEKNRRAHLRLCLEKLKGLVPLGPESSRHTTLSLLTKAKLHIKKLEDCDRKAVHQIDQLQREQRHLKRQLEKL
With `CACGCCAC` the E-score was 0.335.
With `CATGCATA` the E-score was 0.298.
For `CGTGATTC`, the E-score was 0.346.
`ACGTGACC` has an E-score of 0.353.
With `ACACATGG` the E-score was 0.454.
With `CACATTTC` the E-score was 0.252.
The E-score of `CAGGGGGG` is reported as 0.312.
With `GTGTCATA` the E-score was 0.267.
`ACATGTCC` gave an E-score of 0.377.
The E-score of `CGCATGAC` is reported as 0.307.
`ACGCTGCC` has an E-score of 0.25.
The E-score of `CCACACGC` is reported as 0.374.
`ATGTGGTA` has an E-score of 0.303.

Study 3 — method: RNA Bind-n-Seq; molecule type: RNA; sample: in vitro; concentration: 1 µM; notes: whole 134-nt RNA, ends assumed; with: 150 mM KCl; baseline: input library; reading: higher = stronger binding
Target: Ras GTPase-activating protein-binding protein 1, C-terminal RGG region (G3BP1, Homo sapiens, UniProt Q13283)
UniProt Q13283, sequence (whole entry, looked up): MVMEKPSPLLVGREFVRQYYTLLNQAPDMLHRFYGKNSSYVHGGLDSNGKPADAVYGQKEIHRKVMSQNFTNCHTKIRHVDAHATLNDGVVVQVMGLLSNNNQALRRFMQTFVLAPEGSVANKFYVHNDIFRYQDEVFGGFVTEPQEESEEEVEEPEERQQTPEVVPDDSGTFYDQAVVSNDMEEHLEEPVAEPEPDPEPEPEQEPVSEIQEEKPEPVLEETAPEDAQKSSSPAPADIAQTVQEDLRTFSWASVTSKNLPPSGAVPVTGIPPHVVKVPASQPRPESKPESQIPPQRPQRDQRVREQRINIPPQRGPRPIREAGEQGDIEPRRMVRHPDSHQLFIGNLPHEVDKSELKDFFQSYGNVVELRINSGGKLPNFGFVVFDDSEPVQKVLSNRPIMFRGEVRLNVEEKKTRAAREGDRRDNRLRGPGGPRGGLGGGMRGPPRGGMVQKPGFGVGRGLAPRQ
All sequences stand within: GGGAGUUCUACAGUCCGACGAUC … UGGAAUUCUCGGGUGUCAAGG
The log2 enrichment of `AAGUCCUGUGCUACACAUCGUAUGUACCGAAUCGGGAAAAAGGGUUUGGGAAAGGGAAAGUAUUAUGUUACGCCGUUCGGAUCUGCACUU` is reported as 1.08.
For `CCUGUGCUACACAUCGUAUGUACCGAAUCGGAAAAAAAGGGGAAAAAAAGGAAAAAAAGGGAAAGUAUUAUGUUACGCCGUUCGGAUCUG`, the log2 enrichment was -1.55.
`UGGCCCUGGUGGCAUGCGGGGAGGAAGAGGUGGCCUCAUGGAUCGUGGUGGUCCCGGUGGAAUGUUCAGAGGUAGCCGUGGUGGAGACAG` gave a log2 enrichment of 2.95.
The log2 enrichment of `UGGGAGGUUGAUUUUGUUUAUUUUUUUAGCUCAUUUCCAGGGGUGGGAAUUUUUUUUUAAUAUGUGUCAUGAAUAAAGUUGUUUUUGAAA` is reported as 3.42.
`GCUGGAAGUAAAAACAAAUGGAAAUGCUUCGGAUAGUGGCAGGGGUGGGGGUUGCUAAGGAAAGGGUGGGAUGGGAGUGGGUAAAGAGUU` has a log2 enrichment of 2.48.
`CCUGUGCUACACAUCGUAUGUACCGAAUCGGAAAAAAAGGAAAAAAAGGGGAAAAAAAGGAAAGUAUUAUGUUACGCCGUUCGGAUCUGC` gave a log2 enrichment of -1.77.
`CACAGACAACAAAAACCCACACAGACACAGAGGGAAGGGGUUGGGAUGGGGACAGGGUGCACAGCAGGGCGGGGUAGGACCCCAGCCCCU` has a log2 enrichment of -0.255.
`GUCCUGUGCUACACAUCGUAUGUACCGAAUCGGGUUUUUUUGGGAAAAAGGGAAAGGGAAAGUAUUAUGUUACGCCGUUCGGAUCUGCAC` has a log2 enrichment of -0.602.
`AAGUCCUGUGCUACACAUCGUAUGUACCGAAUCGGGUUUUUUUGGGAGGGAAAGGGAAAGUAUUAUGUUACGCCGUUCGGAUCUGCACUU` has a log2 enrichment of 0.814.
With `UGGGAGGUGGAUUUUGUUUAUUAUUUUAGCUCAUUUCCAGGGGUGGGAAUUUUUUUUUAAUAUGUGUCAUGAAUAAAGUUGUUUUUGAAA` the log2 enrichment was 2.89.
For `UGGCCCUGGUGGCAUGCGGGGAGGAAGAGGUGGCCUCAUGGAUCGUGGUGGUCCCGGUGGAAUGUUCAGAGGUGGGCGUGGUGGAGACAG`, the log2 enrichment was 3.21.
`AGUCCUGUGCUACACAUCGUAUGUACCGAAUCAAAUUUUUAAAUUUAAACCCCCAAAAAAGUAUUAUGUUACGCCGUUCGGAUCUGCACU` has a log2 enrichment of -1.13.
The log2 enrichment of `GCAGGAAGUAAAAACAAAUGGAAAUGCUUCGGAUAGUGGCAGGGGUGGGGGUUGCUAAGGAAAGGGUGGGAUGGGGGUGGGUAAAGAGUU` is reported as 1.33.
`AGUCCUGUGCUACACAUCGUAUGUACCGAAUCGGCCCCGGGGCCCCGGGGCCCCGGGGAAAGUAUUAUGUUACGCCGUUCGGAUCUGCAC` has a log2 enrichment of -2.03.

Study 4 — method: RNA Bind-n-Seq; molecule type: RNA; sample: in vitro; concentration: 365 nM; baseline: no-protein control; reading: higher = stronger binding
Target: RNA binding protein fox-1 homolog 2, RRM domain, GST-SBP tag (RBFOX2, Homo sapiens, UniProt O43251-10, residues 100-194)
Notes: natural RNA segment, single round, ends assumed
All sequences stand within: GGGAGUUCUACAGUCCGACGAUC … UGGAAUUCUCGGGUGCCAA
Residues (chain): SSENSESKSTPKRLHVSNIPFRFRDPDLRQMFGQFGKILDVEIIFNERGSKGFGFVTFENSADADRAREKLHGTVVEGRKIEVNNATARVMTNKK
Under “RBNS enrichment (R)”, `ACGUGUAUAGUAUCUGUAUAUAAGUUGCUGUGUGUCUGUCCUGAUUUCUACAACUGGAGUUUUUUUAUACAAUGUUCUUUGUCUCAAAAUAAAGCAAUGUGUUUUUUCGG` is recorded as 0.411.
Under “RBNS enrichment (R)”, `CUGAGAGGUUCUUGCCUGCAGGAGAAGCUGUCACAUCUCAAGCAUGUGAGGCACCGUUUUUCUCGUCGCUUGCCAAUCUGUUUUUUAAAGGAUCAGGCUCGUAGGGAGCA` is recorded as 2.04.
Under “RBNS enrichment (R)”, `UCCCCCUGUCCCCUCAGCUCCAGACGUAGGGGAGGGGUUGCCACAGGCCUCCCUGUUUGAAGCCUGCCCUUGUCUGAGAUGCUGGUAAUGGCCAUGGUACCCCCUUCUGG` is recorded as 0.342.
`CAUGAGCACAGGUGCCUCAUGGCAAACAUGGCUGGCAUGUUCAACUGCAUAAUGCUCUGGCACUGUAUUUUGAAUGACAUUAAUUUAUUAAAUAAAUUGUAUAUAAUCAG` — result for “RBNS enrichment (R)”: 1.13.
Under “RBNS enrichment (R)”, `ACCACCACCACCACCACCACCCCUUUUUAUCCUGGUGUGAAACAAUGGUAAUUUGAUAUAUGGUAUUUAUAUUGGCAUUUUUCAAUCCAGUGUCAGUAGCUGUCACGCGC` is recorded as 0.72.
`ACAGCCAAAUGGAUUGACUACAGUGGGGGCAGCUAAUUAAUGAUUAAUCAGAAGCAUUUGAUAAUAAUCUGCCUUGCAGCCACGCCUUCAAACUUCAUUGUUGCUUUCUC`: “RBNS enrichment (R)” 0.378.
Under “RBNS enrichment (R)”, `AAGUUGGAAGGAUCUGCUGAGGCCCAGUGCAUAUGCAAUGUAUAGUGUCUAUUAUCACAUUAAUCUCAAAGAGAUUCGAAUGACGGUAAGUGUUCUCAUGAAGCAGGAGG` is recorded as 0.351.
Under “RBNS enrichment (R)”, `UGCAGCUUUUCCAUAUCAGCUCAACCACGCCGCCAGUCCAUUCUUAAGGAACUGCCGACUAGGACUGAUGAUGCAUUUUAGCUUUGAGCUUUUGGGGGUUAUUCUACCAA` is recorded as 0.338.
For `UAGAAUCCCUGAACACUACUUCACACCUCCCCCACUGCCAGUUGGUUGAUGCUCUAGAGCCACUCUUUCUUAAUGCCAGAUUAUUUAAAGAAAAAUACAAGACAAAAACC`, “RBNS enrichment (R)” read 1.03.
`GGGAGCUUGUUUUCAACAUUGCUUAUAUUUGAAUAGUAGAAAACCCGACAUUGAUGUUUCUUCCUGUUGCAAGGUGGGGCUUUAAACUUUCAAGGUACAAAAGUAUGUCU` — result for “RBNS enrichment (R)”: 0.666.
Under “RBNS enrichment (R)”, `UUGGAGGUUCUGAAGAUUCUGUUAUAGAGCAAGAAAUGGCUUAAUUUUUUUUUUUAAUUGGAAUUUACCAGUUUAUUGUUUAGCAGUAAUUACCCCAGGUAACACUGGGC` is recorded as 0.5.
For `GAGGGCUAUUUGCCCACCUUCACUCUCCCUGCCUUCCCUUCUGAGUUGUGGUAGAGCAAAGACCCACAGGGGUUGGACCCAGACCUCUUAAAACCUGGCUGGACCCCCAU`, “RBNS enrichment (R)” read 0.759.

Study 5 — method: DHFR PCA, deep sequencing; sample: yeast; with: (+)-ABA 0.39 µM; baseline: wild-type fitted maximum; reading: higher = stronger binding
Target: ABI1, truncated, D143A, DHFR fusion (Arabidopsis thaliana)
Notes: methotrexate growth selection, single substitutions
Starting sequence: PYL1, truncated, DHFR fusion (Arabidopsis thaliana); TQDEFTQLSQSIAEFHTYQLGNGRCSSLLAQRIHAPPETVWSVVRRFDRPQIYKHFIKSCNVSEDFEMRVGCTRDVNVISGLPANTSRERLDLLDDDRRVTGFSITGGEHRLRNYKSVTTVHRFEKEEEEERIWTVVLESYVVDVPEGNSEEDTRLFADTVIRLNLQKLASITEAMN
`Y115R` — result for “relative binding score”: -0.455%.
Under “relative binding score”, `E67T` is recorded as 33.4%.
`F15H`: “relative binding score” 19.1%.
For `F103W`, “relative binding score” read -8.48%.
For `S80I`, “relative binding score” read 16.9%.
`L138D` — result for “relative binding score”: -2.93%.
`V78S` — result for “relative binding score”: 5.4%.
For `I105R`, “relative binding score” read -7.09%.
For `F5S`, “relative binding score” read 15.4%.
Under “relative binding score”, `S59Q` is recorded as 20.6%.
Under “relative binding score”, `N165M` is recorded as 13.3%.

Study 6 — target: DDIT3, bZIP domain (human); method: DHFR protein complementation; sample: yeast; baseline: wild-type JUN-FOS pair; reading: higher = stronger binding
Notes: single substitutions, most at no-binding floor
Starting sequence: JUN, bZIP domain (human); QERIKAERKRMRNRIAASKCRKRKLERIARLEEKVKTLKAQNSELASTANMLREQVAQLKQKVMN; partner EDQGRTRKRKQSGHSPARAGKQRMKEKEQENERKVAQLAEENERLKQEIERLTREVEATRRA
`L52I` has a binding fitness of -0.775 natural log.
With `N42V` the binding fitness was -1.03 natural log.
`R30Y` has a binding fitness of 0.00568 natural log.
`V35G` gave a binding fitness of -0.875 natural log.
With `A40Q` the binding fitness was 0.177 natural log.
The binding fitness of `A29E` is reported as -0.0967 natural log.
For `K36M`, the binding fitness was 0.117 natural log.
For `K36R`, the binding fitness was 0.105 natural log.
For `V35H`, the binding fitness was -0.538 natural log.
`T48H` gave a binding fitness of 0.0538 natural log.
`L45S` has a binding fitness of -1.22 natural log.
For `S43D`, the binding fitness was 0.0763 natural log.
`I28E` has a binding fitness of -0.106 natural log.
`K36G` has a binding fitness of -0.233 natural log.
`K34N` has a binding fitness of -0.0902 natural log.
`Q58S` has a binding fitness of 0.0163 natural log.
`Q41V` has a binding fitness of -0.0412 natural log.
The binding fitness of `E54Y` is reported as -0.255 natural log.

For quick reference, copied from above (study 2):
With `CATGCATA` the E-score was 0.298.
For `CGTGATTC`, the E-score was 0.346.
`ACGTGACC` has an E-score of 0.353.
With `ACACATGG` the E-score was 0.454.
With `CACATTTC` the E-score was 0.252.
The E-score of `CAGGGGGG` is reported as 0.312.
With `GTGTCATA` the E-score was 0.267.
